Results from different studies.
Every numbered part comes from another study and shows a few of its results, in no order.

Block 1 — technique: universal PBM; molecule type: double-stranded DNA, one strand shown; sample: in vitro; concentration: not given; reading: higher = stronger binding; endpoint: E-score
Target: Sal-like protein 4, full length isoform B (SALL4, Homo sapiens, UniProt Q9UJQ4-2, residues 1-616)
Setting: 8-mer, flanks averaged, mean of replicates
AACATTCA: 0.159
CATGCTAA: 0.126
AGGGGGCC: -0.325
GTTGATTA: 0.191
AATGACGG: -0.0614
GACTGGTA: -0.178
CCCCAGCC: -0.259
GATTTTTA: 0.241
AATAAAAA: 0.369
ACTTTAGC: -0.0289
ATGTGTTC: -0.00054
CTCCTGCC: -0.138
ACTGGATC: -0.138
ATTCAAGC: 0.131
ACGTCTGG: 0.0656
CTTTAGCC: 0.122
GACCCTAA: -0.153
AGTGATAG: 0.0657
CGGGAACC: -0.34
ACGCGGCC: -0.142
CGGAAAAA: 0.146
ACTACGAC: -0.102
TACCCCGA: -0.127

Block 2 — technique: RNA Bind-n-Seq; molecule type: RNA; sample: in vitro; concentration: not given; reference: input RNA pool; reading: higher = stronger binding; endpoint: bound/input enrichment
Target: RING finger protein unkempt homolog, zinc fingers 1-6, GST-SBP tag (UNK, Homo sapiens, UniProt Q9C0B0, residues 30-357)
Setting: RNA with constant flanks, human and mouse sites, ends assumed
Target sequence (chain): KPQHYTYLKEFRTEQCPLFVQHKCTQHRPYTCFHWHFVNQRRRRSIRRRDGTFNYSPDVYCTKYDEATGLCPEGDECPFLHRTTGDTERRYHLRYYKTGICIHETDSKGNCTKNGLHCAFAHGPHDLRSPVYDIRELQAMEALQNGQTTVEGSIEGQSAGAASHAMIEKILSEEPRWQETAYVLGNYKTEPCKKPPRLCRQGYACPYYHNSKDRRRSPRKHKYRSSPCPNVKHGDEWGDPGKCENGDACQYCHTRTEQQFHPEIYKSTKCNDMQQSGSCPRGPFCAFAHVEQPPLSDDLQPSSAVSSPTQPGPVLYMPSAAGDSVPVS
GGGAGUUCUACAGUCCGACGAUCGUGAUGUCUGGAGACAUGUUGGGUUGUCAAAACUGGGGUGGGGAAAAGGUUGCUACUGUGCAAUGCAUACCUCCUCAACACCCCCCCACACUCAGUAAAGAAUUUUCCAACCCAAAAUAUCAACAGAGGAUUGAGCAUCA: 0.145 ratio
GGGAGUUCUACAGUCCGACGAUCUUUCGCUUGGCGCUGGGCAGCUUCGUGGAGGAGUACAACAACAAGGUUCAGCUUGUUGGUUUAGAUGAGGAGAGUUCAGAGUUUAUUUGCAGAAACACCUUUGACCACCCAUACCCCACCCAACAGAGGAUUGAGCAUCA: 0.214 ratio
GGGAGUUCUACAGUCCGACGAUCUUAGAUAAGCAGGUGAAAAACGGACCCUCAUUAACAGAAGCACUGGAAAAUGCUGGAAUUUUCUAUGAAGCACAAUACAAAGAAGUAAAAGUGGUGGCUAAUGCAUAUAAAACCUUUGCUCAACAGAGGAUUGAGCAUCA: 0.569 ratio
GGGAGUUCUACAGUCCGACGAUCGUGUCAGAGGCCAGGAGCCCAGCCGGGGCGAUGUGGAUGACGCCUUGGGAAAGUUUUCCCUAACACUGAUUGAUUCUUUGGACACUCUUGUGGUAUUAAACAAAACUAAGGAAUUUGAAGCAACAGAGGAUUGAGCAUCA: 0.335 ratio
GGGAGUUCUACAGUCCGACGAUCAAUGUGUCCAUGCAAAAUGCUGUGAAUGAGCCUGUACAGAAACUAAUGCGGAAAAAGCAAUUAGACGUAGCAGAAUUUAGCAUCUAUUGGGAUGUCGAUUGCACUUUACUGGGGGAUUUGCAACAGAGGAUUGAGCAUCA: 0.587 ratio
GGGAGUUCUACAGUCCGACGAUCGAUUUGCCACACAACUUCACAUCUAUAAUUUGUCAACCCAAACUCUUCUAGCCAAUGAUGGAGCAUGUGCGAAUUCACCCGGAAUUAGUGACUGGAUCCAAGGACCAUGAACUGGACCCUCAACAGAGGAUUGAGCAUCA: 0.492 ratio
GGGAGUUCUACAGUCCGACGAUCGCCGGAAACAAACCGGAAGCAGUAGAAGUAACAUUUGCAGAUUUCGAUGGGGUCCUCUAUCAUAUUUCAAAUCCUAAUGGAGACAAAACAAAAGUGAUGGUCAGUAUUUCUUUGAAAUUCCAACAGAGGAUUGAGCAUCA: 0.621 ratio
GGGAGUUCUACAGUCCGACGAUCCGUGUCACAUCUCAGGUAUCUAAUUUGAAGAAAAAAGAAACUACAGCAGAUUCUCAAACCACAACAUCUAAGUCAUUACAGAAUCAGUCUCUGAAAGAAAAUCAGAAGAAGCCAUUUGUGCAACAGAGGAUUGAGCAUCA: 0.173 ratio
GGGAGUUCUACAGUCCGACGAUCAUGUUUGGUUUUCCAGUGAGGAAAGCCACUGGGAACCUGACUGUGCCCUUUCCUGUCCUGAAUUUGUCUUCAGGCUUCAUCGGUCCCUCAGUUUUACUAUCCUUAUGAAACUCAGGCUUACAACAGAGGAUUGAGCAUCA: 0.0965 ratio
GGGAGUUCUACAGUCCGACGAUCCAGUACAAAGAUGACAAUUUUGGAGAAGGAAAUGAUGGCGGUAUAUUAGAUGACAAACUUAUAAGUAAUAAUGAUGGUGGCAUCUUUGACGAUCCCCCUGCCUUGUCUGAGGCAGGGGUCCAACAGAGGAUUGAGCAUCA: 5.11 ratio
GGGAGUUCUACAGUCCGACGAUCGACAGUUGGUAACUAGGUUCUCUGACCUUUGUUCUACAGGCAGAUCCAGCAAACCCUUUGUAGCACUGUAAAUACUUUGGCUUCGAUAAUGUUCUUAUUACUCUAACCAAUCAUAACUGGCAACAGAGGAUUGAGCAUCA: 0.114 ratio

Block 3 — technique: RNA Bind-n-Seq; molecule type: RNA; sample: in vitro; concentration: 365 nM; reference: no-protein control; reading: higher = stronger binding; endpoint: RBNS enrichment (R)
Target: RNA binding protein fox-1 homolog 2, RRM domain, GST-SBP tag (RBFOX2, Homo sapiens, UniProt O43251-10, residues 100-194)
Setting: natural RNA segment, single round, ends assumed
Residues (chain): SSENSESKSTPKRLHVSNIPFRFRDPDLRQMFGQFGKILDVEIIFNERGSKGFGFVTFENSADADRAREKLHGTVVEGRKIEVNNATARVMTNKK
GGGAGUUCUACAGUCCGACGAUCUACAAUUUAUACAGCUUUCCUAGCAUUUUAAAUGGAAAUGUCAAUAAAUGCUAUGAAUUGGUGUCAAGUGAUAUUUUCUGUUGAUUUCCUUUGCAACAUGAUAGUUUUCUUGGAAUUCUCGGGUGCCAA: 2.69
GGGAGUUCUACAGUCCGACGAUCAGCUCACAAACUCAGUUGGCCCGUGCUCCGUUCACCUGCGAAGGGCAGCCUAAUAUGAAGAUUGAUCCUUCAAUUUUUUUCCUGUUCAUUUUAGUGCUAAAAGGCUUUUAUGGAAUUCUCGGGUGCCAA: 0.251
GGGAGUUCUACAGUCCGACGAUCACCUAAAUGGACUUGAAAUUGAAGCAGGAAGGUUGGGUUCUCCAUGGAUGGAACUCACCUGCCUGAACUGAGCAGGAAUGUCAGUCUUCCACUGCCCCUCCCUGCCAUCUUGGAAUUCUCGGGUGCCAA: 0.366
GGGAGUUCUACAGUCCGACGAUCCAUUAAUUAAGAGGUUGAAAAGAAGUACAGUGUAAGAAAACCCAGCAUUUUAAUUAUUUGCAAAUUAAGGUGCCACAGACACAGACUUAGUGGUAUGUAAAUGUUGACUCUGGAAUUCUCGGGUGCCAA: 0.687
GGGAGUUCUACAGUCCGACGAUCGGGGGACACUAGAAUGAAAACCAGUGUUAGGGUAAAGACAAAACAGACUAUGUACAUAAUCUGUAUAUGGGAAAAGAAAGAGCGAAAUUACCUUACUUAAGGAUAAUAGGUGGAAUUCUCGGGUGCCAA: 0.994
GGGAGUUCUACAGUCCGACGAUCCAUACCCUCAUGGCUUCACAGUCAAGGUCAGCAGGAAGCUCAUUGGUCACCUUCAUGGUGACCUCUCCAUUAUUCUGUCUCACUUGGAACCAUUUUCAGUUUAUUUACUAUGGAAUUCUCGGGUGCCAA: 0.277
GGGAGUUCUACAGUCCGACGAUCACUUUUCCUCCUUUUUACAAAGAGAGGGCUGGCUUAGUUAUUUGCCAAAGCCCCUUCCAGGCCUGAAUUCCACAAGUACGAUUUACUGUAGUGUCUUAUCACUCUUUCAUUGGAAUUCUCGGGUGCCAA: 0.404
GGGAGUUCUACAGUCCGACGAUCUCUCACAGAGCUUUAAAUUAUUCUCCUAAGUUUCUUGUGGAUGAAGCGCUCUCAUCUAACCUAUGUUGGGUUGUGCCACCACGUCUGUACCAGAUGUCCCAUCCGGCAUCUGGAAUUCUCGGGUGCCAA: 0.288
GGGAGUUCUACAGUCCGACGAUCAUAGACAAUCCAAAGUCUCCCCUUCUGUUGCCGUCAUCUUGUUUAAUCAACCAUUUUUCAAGGCACUCGAUCAGUGUUGCAGCAUAACAGAAAGUACAGCUACUGUGCCUUGGAAUUCUCGGGUGCCAA: 0.818
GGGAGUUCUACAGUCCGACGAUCGAGGGACCUCGGCUUCUUGAGGCAAAAGGCACUAGUACUUAAAGUACUUUCUGUGGCGUGACCAAUCUUUACUGUUUUUCUAACUACAGAUGUAUGAACAUCCUUGGAGUUGGAAUUCUCGGGUGCCAA: 0.449
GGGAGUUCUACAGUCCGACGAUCUCCGAGGCCACCCUUCACGGCGAGCCUCGUGCUGGGCUCUUACCUGUGCUUUCUUGCUCUGGACUGCGAGUGCACCCAGGGUUCUUCUAUCCCGACACAGCUCUGUGCCUUGGAAUUCUCGGGUGCCAA: 0.237
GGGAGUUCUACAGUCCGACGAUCGUGUAUUUAAUCUGUAUUAUUCUCUAUUACCCUUGGAACUUUCUUCCCCGUGGGCCUGGGUUACUUUACAUUGAAUAAACACUGUUUGACCCAGUGUUCUGACUUGUACCUGGAAUUCUCGGGUGCCAA: 0.428

Block 4 — technique: protein-binding microarray; molecule type: double-stranded DNA, one strand shown; sample: in vitro; concentration: 940 nM top; setting: 60-bp whole probe; together with: salmon DNA 0.4 mg/ml; reference: random background probes; reading: higher = stronger binding; endpoint: fitted relative affinity; all sequences stand within: GCCTAGCAC … GTCTTGATTCGCTTGACGCTGCTG
Target: Interferon regulatory factor 5, full length, phosphomimetic (IRF5, Homo sapiens, UniProt Q13568-2, residues 1-514, S451D/S453D/S456D/S462D)
TGGTAATTCTTTGCTCATTTTGTGCTA: 0.84 z-score
GACGGTTTCGGGACTGGTGACGTGCTA: 6.45 z-score
TTTCATATATATATGAATATGTGCTAG: 5.16 z-score
CTTTATTTAAGCTCCTATCTTGTGCTA: 0.833 z-score
TTAGTTTCCCTTTTCCTTTAGTGCTAG: 5.36 z-score
GTCGATTTCGGGACTGGAGACGTGCTA: 0.578 z-score
TTAGATTTCGGGACTGGATTTGTGCTA: 0.536 z-score
TTAGATACCGGGTATCGATTAGTGCTA: 3.31 z-score
TTAGATTTCAGAATGGATTAGTGCTAG: -0.0773 z-score
GAGCCCGGGGTGTAAGCAACGTGCTAG: -1.18 z-score
TTAGATCTCAGGATCGATTAGTGCTAG: 0.182 z-score
TTAGAACTGGGGTGTCGATTAGTGCTA: 0.277 z-score
GACGGTCTCCTTTTCCTGACGTGCTAG: 0.683 z-score
TTAGATTGCGGGACTGGATTAGTGCTA: -0.274 z-score
TCACTTTTTGCTTTCTTACTGTGCTAG: 2.04 z-score
GACGATATCCGGACTGGAGACGTGCTA: 0.0644 z-score
TCATCTATGTCTGTTTTACTGTGCTAG: 0.909 z-score
TGTTTTAATTTTCTCTTTGGGTGCTAG: 1.75 z-score
CATCCTGAGTCAAGTCAAGTGTGCTAG: -0.618 z-score
GTGTTTTGCCCTATTTAAGAGTGCTAG: 0.768 z-score
GACGGTTTCGGGCTGGGGACGTGCTAG: 7.16 z-score
GACGATATCAGAGTGGAGACGTGCTAG: -0.536 z-score
GACGGTTCCCTTTACCTGACGTGCTAG: 0.503 z-score
GACGCTTTCAGACTGGAGACGTGCTAG: -0.193 z-score
AGATGGTCCTCTCTCTATTCGTGCTAG: 0.0383 z-score

Some of these lines once more (block 1):
AATGACGG: -0.0614
GACTGGTA: -0.178
CCCCAGCC: -0.259
GATTTTTA: 0.241
AATAAAAA: 0.369
ACTTTAGC: -0.0289
ATGTGTTC: -0.00054
CTCCTGCC: -0.138
ACTGGATC: -0.138
